# Measured values collected from several papers.
# Protocols differ between the studies behind these lines. ± gives the spread as reported.
SMILES,assay,system,conditions,how to read,quantity,value
CC(C)C[C@H](NC(=O)[C@H](CCCCN)NC(=O)[C@H](CC(C)C)NC(=O)[C@H](CC(C)C)NC(=O)[C@H](CCCCN)NC(=O)[C@H](CCCCN)NC(=O)[C@H](CC(C)C)NC(=O)[C@H](CC(C)C)NC(=O)[C@H](CCCCN)NC(=O)[C@H](CC(C)C)NC(=O)[C@H](CC(C)C)NC(=O)[C@H](CCCCN)NC(=O)[C@H](CCCCN)NC(=O)[C@@H](N)CC(C)C)C(N)=O,"chemical stability, HPLC","mouse, serum",8 h,,compound remaining,~38.5%
CC[C@H](C)[C@@H]1NC(=O)[C@H](CCCCN)NC(=O)[C@H](CCCCN)NC(=O)[C@H](Cc2c[nH]c3ccccc23)NC(=O)[C@H](CC(C)C)NC(=O)[C@@H]2CCCN2C(=O)[C@H](C)NC(=O)CNC(=O)CNC(=O)[C@H](CO)NC(=O)CNC(=O)CNC(=O)[C@H](CO)NC(=O)[C@H](CCC(=O)O)NC(=O)[C@H](CC(C)C)NC(=O)[C@H](CC(C)C)NC(=O)[C@H](CCCCN)NC(=O)[C@H](CCCCN)NC(=O)[C@H]([C@@H](C)CC)NC(=O)[C@H]([C@@H](C)CC)NC(=O)[C@H](CCCCN)NC(=O)[C@H](CCCCN)NC(=O)[C@H](Cc2c[nH]c3ccccc23)NC(=O)[C@H](CC(C)C)NC(=O)[C@@H]2CCCN2C(=O)CNC(=O)CNC(=O)[C@@H](NC(=O)CN)CSSC[C@@H](C(N)=O)NC(=O)[C@H](CC(C)C)NC(=O)[C@H](CCCCN)NC(=O)[C@H](CCCCN)NC(=O)[C@H]([C@@H](C)CC)NC1=O,hemolysis,uninfected human erythrocytes,1 h,,HC10,8.4 ± 0.8 µM
Cc1ccc(/C=C/C(=O)O)cc1-c1cc2c(cc1C)C(C)(C)CCC2(C)C,,"Sprague-Dawley rat, male, plasma","oral, 100 mg/kg, 2 h, sesame oil vehicle",,LDL level,15 ± 8 mg/dL
N=C(N)NCc1ccc(C(=O)NCCCC[C@H](NC(=O)N[C@@H](CCC(=O)O)C(=O)O)C(=O)O)cc1[131I],,"SCID mouse, PC-3 xenografts, kidneys",2 h,,tissue uptake,147 ± 14 %ID/g
O=C[C@H](C[C@@H]1CCNC1=O)NC(=O)[C@H](CC1CCCCC1)NC(=O)c1cc2ccccc2[nH]1,,mouse,"intravenous, 5 mg/kg",,clearance,17.4 mL/min/kg
C=C1C(=O)O[C@@H]2C[C@H](C)[C@@H]3C[C@H](O[Si](C)(C)C(C)C)[C@H](O[Si](C)(C)C(C)C)[C@@]3(C)C[C@H]12,propidium iodide flow cytometry,"primary splenocytes, BALB/c mouse","48 h, 10% fetal calf serum",,CC50,37.7 ± 0.5 µg/mL
CC[C@H](C)[C@H](NC(=O)[C@H](CC(=O)O)NC(=O)[C@H](CO)NC(=O)[C@H](CCC(N)=O)NC(=O)[C@H](C)NC(=O)[C@H](CC(=O)O)NC(=O)[C@H](CCC(=O)O)NC(=O)[C@H](Cc1c[nH]cn1)NC(=O)[C@H](Cc1ccc(O)cc1)NC(=O)[C@H](C)NC(=O)[C@H](CC(=O)O)NC(=O)[C@H](CCC(=O)O)NC(=O)[C@H](Cc1c[nH]cn1)NC(=O)[C@H](Cc1ccc(O)cc1)NC(=O)[C@H](C)NC(=O)[C@H](CC(=O)O)NC(=O)[C@H](CCC(=O)O)NC(=O)[C@H](Cc1c[nH]cn1)NC(=O)[C@H](Cc1ccc(O)cc1)NC(=O)[C@H](C)NC(=O)[C@H](CC(=O)O)NC(=O)[C@H](CCC(=O)O)NC(=O)[C@H](Cc1c[nH]cn1)NC(=O)[C@H](Cc1ccc(O)cc1)NC(=O)[C@H](C)NC(=O)[C@H](CC(=O)O)NC(=O)[C@H](CCC(=O)O)NC(=O)[C@H](Cc1c[nH]cn1)NC(=O)[C@@H](N)Cc1ccc(O)cc1)C(=O)N[C@H](C(=O)N[C@@H](C)C(=O)N[C@@H](Cc1c[nH]cn1)C(=O)N[C@@H](CC(C)C)C(=O)N[C@@H](CC(C)C)C(=O)O)C(C)C,,normal mouse,dose not given,,MPV,6.7 ± 1 fL
O=C(O)CCCN1CCN2CCN(CC1)CC(=O)[O][Al]([18F])[O]C(=O)C2,,"Sprague-Dawley rat, normal, blood","iv, 10 min",,blood uptake,8.5 ± 0.8 %ID
CC(C)[C@@H]1NC(=O)[C@H](Cc2ccccc2)NC(=O)[C@H](Cc2ccc(O)cc2)NC(=O)CCSSC[C@@H](C(=O)N2CCC[C@H]2C(=O)N[C@H](CCCNC(=N)N)C(=O)NCC(N)=O)NC(=O)[C@H](CCC(N)=O)NC1=O,,"Wistar rat, blood","intravenous, 100 µg/kg single dose, 72 h",,fibrinogen,180 ± 45.7 mg/dL
CC[C@H](C)C(=O)N1CCC(NC(=O)Nc2ccc(OC(F)(F)F)c(F)c2)CC1,,healthy volunteers,"oral, 24 mg single dose",,subjects with insomnia TEAE,0%
CC(C)C[C@H](NC(=O)[C@H](CCCCN)NC(=O)[C@H](C)NC(=O)[C@@H]1CCCN1C(=O)[C@@H]1CCCN1C(=O)[C@H](CCCCN)NC(=O)[C@H](CCCCN)NC(=O)[C@H](CO)NC(=O)[C@H](CCC(=O)O)NC(=O)[C@H](CCCCN)NC(=O)[C@H](CCCNC(=N)N)NC(=O)[C@H](CCC(N)=O)NC(=O)[C@H](CCC(N)=O)NC(=O)[C@@H](NC(=O)[C@H](CCCNC(=N)N)NC(=O)[C@H](CCC(N)=O)NC(=O)[C@H](Cc1cnc[nH]1)NC(=O)[C@H](CCC(=O)O)NC(=O)[C@@H]1CCCN1C(=O)[C@H](CO)NC(=O)[C@H](CC(C)C)NC(=O)[C@H](Cc1ccccc1)NC(=O)[C@H](CO)NC(=O)[C@H](CO)NC(=O)CN)C(C)C)C(=O)N[C@@H](CCC(N)=O)C(=O)N1CCC[C@H]1C(=O)N[C@@H](CCCNC(=N)N)C(=O)O,,"human, plasma","intravenous infusion, 4 µg/kg/h, 210 min",,mean residence time,106 ± 8 min
CC(C)(CCCC/C=C/CCCCCC(C)(C)C(=O)O)C(=O)O,,beagle dog,long-term GLP toxicity,,NOAEL,360 mg/kg
CSCC[C@H](N)C(=O)N[C@@H](Cc1ccc(O)cc1)C(=O)N[C@@H](CCCNC(=N)N)C(=O)N[C@@H](Cc1ccccc1)C(=O)N[C@@H](C)C(=O)N[C@@H](C)C(=O)N[C@@H](CO)C(=O)N[C@@H](CC(C)C)C(=O)N[C@@H](C)C(=O)N[C@@H](CO)C(=O)N[C@@H](CCCCN)C(=O)N[C@@H](C)C(=O)N[C@@H](CCCNC(=N)N)C(=O)N[C@H](C(=O)N[C@@H](C)C(N)=O)C(C)C,,water,0.167 min,,thermodynamic solubility,28.7 mM
OC1(C(F)(F)F)CCN(c2nc(Nc3ccnc(C(F)(F)F)c3)nc(-c3cccc(C(F)(F)F)n3)n2)C1 (centres unmarked),central nervous system,"Sprague-Dawley rat, both sexes",oral,,NOAEL,50 mg/kg
CCCC[C@H](NC(=O)CN1CCC(NC(=O)CN2CCC(NC(=O)CN3CCN(CC(=O)O)CCN(CC(=O)O)CCN(CC(=O)O)CC3)CC2)CC1)C(=O)N[C@H]1CC(=O)NCCCC[C@@H](C(N)=O)NC(=O)[C@H](Cc2c[nH]c3ccccc23)NC(=O)[C@H](CCCNC(=N)N)NC(=O)[C@@H](Cc2ccccc2)NC(=O)[C@H](Cc2c[nH]cn2)NC1=O [gallium-68 labelled],radio-HPLC,"mouse, plasma","intravenous, 8 to 12 MBq, 15 min post injection",,intact compound,> 94%
O=C(O)CC[C@H](NC(=O)O[C@@H](CCCCNC(=O)c1ccc([18F])cc1)C(=O)O)C(=O)O,,"mouse, PC-3 PIP/flu xenografts, blood",60 min,,tissue uptake,1.07 ± 0.26 %ID/g
Cc1ccc(C(C)C)cc1.O=C(N=P(c1ccccc1)(c1ccccc1)c1ccccc1)c1ccccn1.[Cl-].[Cl-].[Ru+2],,C57BL/6 mice,"10 mg/kg/day, 7 days",,body weight loss,19%
CC(=O)NCC(=O)NCC(=O)N[C@@H](CCCCNP(=O)(O)O)C(=O)NCC(=O)NCC(N)=O,non-enzymatic hydrolysis,,"100 µM, pH 7.8, no enzyme",,first-order rate constant,3.59e-05 s⁻¹
CN[C@](C)(C[18F])C(=O)O,,"SCID mouse A549 xenograft, heart",60 min post injection,,tissue uptake,2.8 ± 0.6 %ID/g
C=Cc1cc(O)cc2nc(-c3ccc(O)c([76Br])c3)oc12,,"female C57BL/6 mouse, spleen","3 h, high dose, together with: estradiol 20 µg blocking",,tissue uptake,0.05 ± 0.02 %ID/g
NC(=O)c1c(F)ccc(OCc2nc3cc(Cl)cnc3s2)c1F,chemical stability,PBS,"10 µM, 24 h",,compound remaining,100%
C[C@@H]1CC[C@H]2[C@@H](C)CO[C@@H]3O[C@@]4(C)CC[C@@H]1[C@]32OO4,measured: compound,"rat, plasma","50.0 ng/mL spiked, three freeze/thaw cycles",,stability accuracy,112%
CC[C@@H]1C[C@]1(NC(=O)[C@@H]1C[C@@]2(CN1C(=O)[C@@H](NC(=O)[C@@H](NC(=O)[C@@H]1CCCCN1C(C)C)C1CCCCC1)C(C)(C)C)C(C)(C)C21CCC1)C(=O)NS(=O)(=O)N1CCCC1,measured: Pain,human,"oral, 50 mg, together with: ritonavir 100 mg",,subjects with adverse event,0%
CC(C)C[C@H](NC(=O)[C@H](Cc1cccc2ccccc12)NC(=O)[C@H](CNC(=O)c1ccc2cc(F)ccc2c1)NC(=O)[C@H](CO)NC(=O)C1CCNCC1)C(=O)N[C@@H](CN)C(=O)N1CCC[C@H]1C(=O)N[C@H](C(N)=O)[C@@H](C)O,metabolic stability,"human, liver S9","3 µM, pH 7.4",,half-life,> 4 h
[2H]C([2H])([2H])C([2H])([2H])C([2H])([2H])OC(C(=O)OC1CCNCC1)(c1ccccc1)c1ccccc1,,"healthy Japanese male subjects, plasma","oral, 18 mg, day 1, mean",,tmax,4.9 h
C[C@H](Nc1c(-c2c(F)cc(OCCCN(C)C)cc2F)c(Cl)nc2ncnn12)C(F)(F)F,,"BALB/c mice, male and female","intraperitoneal, 48 h",,lowest dose causing intolerance,> 10 mg/kg
CCNc1cc2[o+]c3cc(NCC)c(C)cc3c(-c3ccccc3C(=O)OCCOCC[18F])c2cc1C,,"rat, thyroid/trachea",60 min,,tissue uptake,1.05 ± 0.24 %ID/g
CCN(CC)CCOc1ccc(-c2nnn(Cc3ccc(OC)cc3)c2N)cc1,,Beagle dog,"oral, 20 mg/kg",,oral bioavailability,68.8%
CC(C)[C@H](NC(=O)CNC(=O)[C@H](CCC(N)=O)NC(=O)[C@H](C)N)C(=O)O,,human,"intravenous infusion, 15 mg/kg/h, 2 h, relatedness Probably",relative to: subjects,drug-related adverse events,0%
CSCC[C@@H]1NC(=O)[C@@H]2CSSC[C@H](NC(=O)[C@H](CO)NC(=O)[C@H](C)N)C(=O)N[C@@H](CCCNC(=N)N)C(=O)N[C@@H]([C@@H](C)O)C(=O)N3CCC[C@H]3C(=O)N[C@@H](CCCCN)C(=O)N[C@@H](CC(=O)O)C(=O)N[C@H]3CSSC[C@H](NC(=O)[C@H](CCCCN)NC(=O)[C@H](CCCNC(=N)N)NC(=O)[C@H](CC(N)=O)NC1=O)C(=O)N[C@@H](CCCCN)C(=O)N[C@H]1CSSC[C@H](NC(=O)[C@@H]4CCCN4C(=O)[C@H](CC(=O)O)NC(=O)[C@H](C)NC3=O)C(=O)N[C@@H](C)C(=O)N[C@@H](CCCCN)C(=O)N[C@@H](CCC(=O)O)C(=O)N[C@@H]([C@@H](C)O)C(=O)NCC(=O)N[C@@H](CSSC[C@@H](C(N)=O)NC(=O)[C@H](CCCNC(=N)N)NC(=O)[C@H](CC(N)=O)NC1=O)C(=O)N1CCC[C@H]1C(=O)N[C@@H](Cc1ccc(O)cc1)C(=O)NCC(=O)N[C@@H](CCCCN)C(=O)N2,,"DA rat, pristane-induced arthritis, serum","subcutaneous, 0.1 mg/kg every other day, end of 21-day trial",,globulin,1.28 g/dL
CN(C)C(CNC(=O)Nc1cc(C(F)(F)F)ccc1N1CCOCC1)c1ccncc1 (centres unmarked),,"mouse, serum","intraperitoneal, 120 mg/kg single dose",,serum potassium,7.3 mmol/L
Fc1ccc2nc3c4cccnc4c4ncccc4c3nc2c1.[Cl-].[Cl-].[Ru+2].c1ccncc1.c1ccncc1.c1ccncc1.c1ccncc1,,"red blood cells, rabbit","5 µM, 2 h, 37 °C",,hemolysis,0.06 ± 0.01%

# For quick reference, copied from above:
SMILES,assay,system,conditions,how to read,quantity,value
O=C(O)CCCN1CCN2CCN(CC1)CC(=O)[O][Al]([18F])[O]C(=O)C2,,"Sprague-Dawley rat, normal, blood","iv, 10 min",,blood uptake,8.5 ± 0.8 %ID
CC(C)[C@@H]1NC(=O)[C@H](Cc2ccccc2)NC(=O)[C@H](Cc2ccc(O)cc2)NC(=O)CCSSC[C@@H](C(=O)N2CCC[C@H]2C(=O)N[C@H](CCCNC(=N)N)C(=O)NCC(N)=O)NC(=O)[C@H](CCC(N)=O)NC1=O,,"Wistar rat, blood","intravenous, 100 µg/kg single dose, 72 h",,fibrinogen,180 ± 45.7 mg/dL
